# Experimental data gathered from unrelated publications.
# Lines come from different studies, so protocols differ. ± marks the error that the study gave.
SMILES,tested on,test,test system,setting,scale,measurement,result
CC[C@@H]1CN2CC[C@@]3(O)C(=Nc4cccc(OC)c43)[C@@H]2C[C@@H]1/C(=C\OC)C(=O)OC,rabbit anti-mitragynine polyclonal IgG,competitive indirect ELISA,,concentration not given,reference: mitragynine,cross-reactivity,19.3%
Nc1ccc(/C=C/C(=O)N2CCc3c(oc4c(-c5ccc(F)cc5)cc(-c5ccc(C(=O)N6CCC(F)(F)CC6)cn5)cc34)C2)cn1,panel of 97 kinases,enzyme activity,,1 µM,,inhibition,no inhibition
Cc1c(-c2cccc(C3=NCCN3)c2)oc(-c2cccc(C3=NCCN3)c2)c1C,F21T G-quadruplex DNA,FRET melting competition,,"1 µM, added: calf thymus DNA, G4:CT 1:300",reference: without competitor,remaining ΔTm,100%
CC[C@H](C)[C@H](NC(=O)[C@H](CCCCN)NC(=O)[C@H](CCCCN)NC(=O)[C@H](C)NC(=O)[C@@H](NC(=O)[C@H](C)NC(=O)[C@H](CC(C)C)NC(=O)[C@H](CC(C)C)NC(=O)[C@H](C)NC(=O)[C@H](CCCCN)NC(=O)[C@H](CC(C)C)NC(=O)[C@H](CC(N)=O)NC(=O)[C@@H](N)CC(C)C)C(C)C)C(=O)N[C@@H](CC(C)C)C(N)=O,H157,MTT,,24 h,,IC50,13.6 µM
COC(=O)C1=CO[C@@H](OC(C)=O)[C@@H]2C(Cn3cc(CCCN4C(=O)c5ccccc5C4=O)nn3)=CC[C@H]12,SK-N-SH,"neuroprotection, MTT",,"0.075 µM, 24 h, added: 250 µM H2O2",,viability,50.9 ± 0.4%
C[C@H](NC(=O)[C@H](CCC(N)=O)NC(=O)[C@H](C)NC(=O)[C@H](CCCCN)NC(=O)[C@H](CCC(N)=O)NC(=O)[C@H](C)NC(=O)[C@H](CCCCN)NC(=O)[C@H](CCC(N)=O)NC(=O)[C@H](C)NC(=O)[C@H](CCC(N)=O)NC(=O)[C@H](CCCCN)NC(=O)[C@H](C)NC(=O)[C@H](CCC(N)=O)NC(=O)[C@H](CCCCN)NC(=O)[C@H](C)NC(=O)[C@H](CCC(N)=O)NC(=O)[C@H](C)NC(=O)[C@H](CCCCN)NC(=O)[C@H](CCC(N)=O)NC(=O)[C@H](C)NC(=O)[C@H](CCCCN)NC(=O)[C@H](CO)NC(=O)[C@H](Cc1ccc(O)cc1)NC(=O)CNC(=O)CNC(=O)CN)C(=O)N[C@@H](CCCCN)C(=O)N[C@@H](CCC(N)=O)C(=O)N[C@@H](C)C(=O)N[C@@H](CCCCN)C(=O)N[C@@H](CCC(N)=O)C(=O)O,,binding,AA amyloid mouse liver homogenate,"1 h, room temperature",,bound fraction,52%
NC[C@@H]1O[C@H](O[C@H]2[C@@H](O)[C@H](O[C@@H]3[C@@H](O)[C@H](N)C[C@H](N)[C@H]3O[C@H]3O[C@H](CO)[C@@H](OCCO)[C@H](O)[C@H]3N)O[C@@H]2CO)[C@H](N)[C@@H](O)[C@@H]1O,ribosome with mitochondrial A1555G A site,"luciferase translation, cell-free translation",,,,IC50,81.3 ± 17.1 µg/mL
CC(C)CC(O)(CC(C)C)c1cn(C(=O)N2CCCC2)nn1,mouse T-cells,"SILAC proteomics, item: PAIP2B",,"1 nM, 6 h, unit not given",reference: DMSO,protein level,0.92 ± 0.07
CCCCCCCCC(=O)NCc1ccc(O)c(OC)c1,mAb 3-LD3,"antibody binding, indirect competitive ELISA",,added: coating antigen hapten 2-OVA,,IC50,0.00173 µg/mL
COC(=O)C1=CO[C@@H](OC(C)=O)[C@@H]2C(Cn3cc(CCO[Si](c4ccccc4)(c4ccccc4)C(C)(C)C)nn3)=CC[C@H]12,SK-N-SH,"neuroprotection, MTT",,"0.3 µM, 24 h, added: 250 µM H2O2",,viability,47.8 ± 0.3%
Cl.Cl.Cl.Cl.Cl.Cl.Cl.Cl.Cl.Cl.Cl.Cl.NC[C@@H]1O[C@H](O[C@H]2[C@@H](O)[C@H](O[C@@H]3[C@@H](O)[C@H](N)C[C@H](N)[C@H]3O[C@H]3O[C@H](CN)[C@@H](O)[C@H](O)[C@H]3N)O[C@@H]2Cn2cc(CCCCCCc3cn(C[C@H]4O[C@@H](O[C@@H]5[C@@H](O)[C@H](N)C[C@H](N)[C@H]5O[C@H]5O[C@H](CN)[C@@H](O)[C@H](O)[C@H]5N)[C@H](O)[C@@H]4O[C@H]4O[C@@H](CN)[C@@H](O)[C@H](O)[C@H]4N)nn3)nn2)[C@H](N)[C@@H](O)[C@@H]1O,HIV-1,reverse transcriptase release,"MT-2, NL4-3","concentration not given, day 6",reference: virus control,protection,≥ 20%
CCCCCCCCOCc1cn(CC2=CC[C@@H]3C(C(=O)OC)=CO[C@@H](O)[C@H]23)nn1,SK-N-SH,"neuroprotection, MTT",,"0.15 µM, 24 h, added: 250 µM H2O2",,viability,53.2 ± 1.7%
CC[C@H](C)[C@H](NC(=O)[C@H](Cc1ccccc1)NC(=O)[C@H](CCC(=O)O)NC(=O)[C@H](CCCCNC(=O)COCC(=O)NCCCOCCOCCOCCCNC(=O)CNC(=O)[C@@H]1CCCN1C(=O)CNC(=O)[C@@H]1CCCN1C(=O)CNC(=O)[C@@H]1CCCN1C(=O)[C@H](CCCCNC(=O)CN(CCN(CCN(CC(=O)O)CC(=O)O)CC(=O)O)CC(=O)O)NC(=O)COCC(=O)NCCCOCCOCCOCCCNC(=O)COCC(=O)NCCOc1ccc(Cl)cc1C(=O)NCCc1ccc(S(=O)(=O)NC(=O)NC2CCCCC2)cc1)NC(=O)[C@H](C)NC(=O)[C@H](C)NC(=O)[C@H](CCC(N)=O)NC(=O)CNC(=O)[C@H](CCC(=O)O)NC(=O)[C@H](CC(C)C)NC(=O)[C@H](Cc1ccc(O)cc1)NC(=O)[C@H](CO)NC(=O)[C@H](CO)NC(=O)[C@@H](NC(=O)[C@H](CC(=O)O)NC(=O)[C@H](CO)NC(=O)[C@@H](NC(=O)[C@H](Cc1ccccc1)NC(=O)[C@@H](NC(=O)CNC(=O)[C@H](CCC(=O)O)NC(=O)[C@H](C)NC(=O)[C@@H](N)Cc1c[nH]cn1)[C@@H](C)O)[C@@H](C)O)C(C)C)C(=O)N[C@@H](C)C(=O)N[C@@H](Cc1c[nH]c2ccccc12)C(=O)N[C@@H](CC(C)C)C(=O)N[C@H](C(=O)N[C@@H](CCCNC(=N)N)C(=O)NCC(=O)N[C@@H](CCCNC(=N)N)C(=O)NCC(N)=O)C(C)C,GLP-1R and SUR1,Eu-ligand saturation binding,βTC3,"1 h, 37 °C",,Kd,0.0505 µM
COC(=O)C1=CO[C@@H](OC(C)=O)[C@@H]2C(Cn3cc(COCc4ccccc4)nn3)=CC[C@H]12,SK-N-SH,"neuroprotection, MTT",,"0.6 µM, 24 h, added: 250 µM H2O2",,viability,60.6 ± 0.4%
CC(C)C[C@H](NC(=O)[C@H](C)NC(=O)CNC(=O)[C@H](C)NC(=O)CNC(=O)[C@H](Cc1c[nH]cn1)NC(=O)[C@H](CCCCN)NC(=O)[C@H](CC(C)C)NC(=O)[C@H](C)NC(=O)[C@H](CCCCN)NC(=O)[C@H](CCCNC(=N)N)NC(=O)[C@@H](NC(=O)[C@H](CC(C)C)NC(=O)[C@H](CCCCN)NC(=O)[C@H](CCCCN)NC(=O)[C@H](CC(C)C)NC(=O)[C@H](CCCCN)NC(=O)[C@H](CCCCN)NC(=O)[C@H](CCCNC(=N)N)NC(=O)[C@H](Cc1c[nH]c2ccccc12)NC(=O)[C@H](CCCCN)NC(=O)[C@H](CCCNC(=N)N)NC(=O)[C@@H](N)CCCCN)C(C)C)C(=O)N[C@@H](CC(C)C)C(=O)N[C@@H](CO)C(N)=O,,electronic von Frey,"male C57BL/6J mice, ipsilateral paw","intraplantar, 10 µL of 1.2 mM",,duration of mechanical hypersensitivity,> 60 min
COCO[C@H]1[C@H](O)[C@@H](N)[C@@H](O[C@H]2[C@H](O[C@@H]3O[C@H](CO)[C@@H](O[C@H]4O[C@@H](CN)[C@@H](O)[C@H](O)[C@H]4N)[C@H]3O)[C@@H](O)[C@H](N)C[C@@H]2N)O[C@@H]1CO,ribosome with mitochondrial A site,"luciferase translation, cell-free translation",,,,IC50,68.2 ± 5.66 µg/mL
COC(=O)C1=CO[C@@H](OC(C)=O)[C@@H]2C(Cn3cc(C4(O)CCCC4)nn3)=CC[C@H]12,SK-N-SH,"neuroprotection, MTT",,"0.6 µM, 24 h, added: 250 µM H2O2",,viability,63.4 ± 0.2%
CCCO[C@H]1[C@H](O)[C@@H](N)[C@@H](O[C@H]2[C@H](O[C@@H]3O[C@H](CO)[C@@H](O[C@H]4O[C@@H](CN)[C@@H](O)[C@H](O)[C@H]4N)[C@H]3O)[C@@H](O)[C@H](N)C[C@@H]2N)O[C@@H]1CO,Mycobacterium smegmatis ribosome A1408G,"translation, cell-free translation",,,reference: A1408G mutant over wild type,IC50 ratio,80
COC(=O)C1=CO[C@@H](OC(C)=O)[C@@H]2C(Cn3cc(CN4C(=O)c5ccccc5C4=O)nn3)=CC[C@H]12,SK-N-SH,"neuroprotection, MTT",,"0.075 µM, 24 h, added: 250 µM H2O2",,viability,53.5 ± 0.6%

# For quick reference, copied from above:
SMILES,tested on,test,test system,setting,scale,measurement,result
CCCCCCCCOCc1cn(CC2=CC[C@@H]3C(C(=O)OC)=CO[C@@H](O)[C@H]23)nn1,SK-N-SH,"neuroprotection, MTT",,"0.15 µM, 24 h, added: 250 µM H2O2",,viability,53.2 ± 1.7%
COC(=O)C1=CO[C@@H](OC(C)=O)[C@@H]2C(Cn3cc(CCCN4C(=O)c5ccccc5C4=O)nn3)=CC[C@H]12,SK-N-SH,"neuroprotection, MTT",,"0.075 µM, 24 h, added: 250 µM H2O2",,viability,50.9 ± 0.4%
